Experimental data of several laboratories.
Parts stem from different laboratories: compare values within a part only. Several values in a cell are separate wells, animals, samples, runs or records.
Sequence of UniProt Q8IW41 (whole entry, looked up): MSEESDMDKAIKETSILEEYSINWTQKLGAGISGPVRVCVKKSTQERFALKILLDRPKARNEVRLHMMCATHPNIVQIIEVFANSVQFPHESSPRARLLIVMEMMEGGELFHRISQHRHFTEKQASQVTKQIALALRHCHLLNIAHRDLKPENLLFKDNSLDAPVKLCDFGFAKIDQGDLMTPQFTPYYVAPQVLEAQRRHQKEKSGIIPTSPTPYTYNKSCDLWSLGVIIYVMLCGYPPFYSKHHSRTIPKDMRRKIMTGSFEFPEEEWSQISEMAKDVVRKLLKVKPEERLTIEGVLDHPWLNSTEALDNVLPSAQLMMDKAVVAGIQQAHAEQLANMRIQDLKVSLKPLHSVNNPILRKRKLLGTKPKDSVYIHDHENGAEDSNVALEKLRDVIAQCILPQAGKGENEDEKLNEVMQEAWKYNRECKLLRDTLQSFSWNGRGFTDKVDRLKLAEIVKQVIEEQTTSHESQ
Sequence of UniProt Q9HBY8 (whole entry, looked up): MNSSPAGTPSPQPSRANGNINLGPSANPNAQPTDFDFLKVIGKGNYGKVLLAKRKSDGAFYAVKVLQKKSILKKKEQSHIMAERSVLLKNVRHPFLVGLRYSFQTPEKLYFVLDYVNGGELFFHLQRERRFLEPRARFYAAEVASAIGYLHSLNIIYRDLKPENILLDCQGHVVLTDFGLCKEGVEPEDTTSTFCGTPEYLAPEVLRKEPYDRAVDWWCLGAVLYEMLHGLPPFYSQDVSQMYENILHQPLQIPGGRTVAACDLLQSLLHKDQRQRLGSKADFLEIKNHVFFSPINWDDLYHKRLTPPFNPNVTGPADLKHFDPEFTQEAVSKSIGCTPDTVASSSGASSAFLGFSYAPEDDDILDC
Sequence of UniProt Q96J92 (whole entry, looked up): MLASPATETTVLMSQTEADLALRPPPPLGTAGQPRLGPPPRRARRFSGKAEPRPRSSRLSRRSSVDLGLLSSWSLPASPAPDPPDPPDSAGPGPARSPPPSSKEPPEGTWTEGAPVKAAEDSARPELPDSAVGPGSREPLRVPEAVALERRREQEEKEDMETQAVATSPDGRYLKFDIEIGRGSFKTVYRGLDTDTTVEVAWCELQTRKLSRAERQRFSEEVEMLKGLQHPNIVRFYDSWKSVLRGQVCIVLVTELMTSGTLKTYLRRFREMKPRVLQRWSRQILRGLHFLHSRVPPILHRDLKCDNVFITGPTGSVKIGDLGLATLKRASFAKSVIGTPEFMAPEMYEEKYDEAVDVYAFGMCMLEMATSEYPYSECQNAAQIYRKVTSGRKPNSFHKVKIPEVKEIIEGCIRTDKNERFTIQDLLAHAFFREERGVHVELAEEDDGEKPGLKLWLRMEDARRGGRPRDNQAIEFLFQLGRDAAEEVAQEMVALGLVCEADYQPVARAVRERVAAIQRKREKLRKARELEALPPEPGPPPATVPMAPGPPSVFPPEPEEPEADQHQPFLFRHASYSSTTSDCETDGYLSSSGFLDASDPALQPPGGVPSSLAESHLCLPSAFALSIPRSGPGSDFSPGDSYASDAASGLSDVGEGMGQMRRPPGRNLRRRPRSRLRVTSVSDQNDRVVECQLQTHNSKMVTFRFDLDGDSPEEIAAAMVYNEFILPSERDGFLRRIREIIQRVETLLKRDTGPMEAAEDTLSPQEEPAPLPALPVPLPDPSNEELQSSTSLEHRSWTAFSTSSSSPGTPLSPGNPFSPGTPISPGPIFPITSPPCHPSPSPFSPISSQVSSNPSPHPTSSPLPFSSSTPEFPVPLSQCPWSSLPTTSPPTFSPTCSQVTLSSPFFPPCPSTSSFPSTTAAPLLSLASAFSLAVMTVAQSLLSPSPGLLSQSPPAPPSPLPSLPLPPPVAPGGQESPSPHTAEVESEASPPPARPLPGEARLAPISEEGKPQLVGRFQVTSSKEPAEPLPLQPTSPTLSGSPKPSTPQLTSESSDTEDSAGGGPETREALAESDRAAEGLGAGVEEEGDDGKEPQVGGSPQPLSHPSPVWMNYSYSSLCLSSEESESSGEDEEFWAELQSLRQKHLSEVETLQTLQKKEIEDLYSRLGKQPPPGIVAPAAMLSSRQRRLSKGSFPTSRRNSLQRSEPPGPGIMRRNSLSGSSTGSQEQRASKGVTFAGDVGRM
Sequence of UniProt P00519 (whole entry, looked up): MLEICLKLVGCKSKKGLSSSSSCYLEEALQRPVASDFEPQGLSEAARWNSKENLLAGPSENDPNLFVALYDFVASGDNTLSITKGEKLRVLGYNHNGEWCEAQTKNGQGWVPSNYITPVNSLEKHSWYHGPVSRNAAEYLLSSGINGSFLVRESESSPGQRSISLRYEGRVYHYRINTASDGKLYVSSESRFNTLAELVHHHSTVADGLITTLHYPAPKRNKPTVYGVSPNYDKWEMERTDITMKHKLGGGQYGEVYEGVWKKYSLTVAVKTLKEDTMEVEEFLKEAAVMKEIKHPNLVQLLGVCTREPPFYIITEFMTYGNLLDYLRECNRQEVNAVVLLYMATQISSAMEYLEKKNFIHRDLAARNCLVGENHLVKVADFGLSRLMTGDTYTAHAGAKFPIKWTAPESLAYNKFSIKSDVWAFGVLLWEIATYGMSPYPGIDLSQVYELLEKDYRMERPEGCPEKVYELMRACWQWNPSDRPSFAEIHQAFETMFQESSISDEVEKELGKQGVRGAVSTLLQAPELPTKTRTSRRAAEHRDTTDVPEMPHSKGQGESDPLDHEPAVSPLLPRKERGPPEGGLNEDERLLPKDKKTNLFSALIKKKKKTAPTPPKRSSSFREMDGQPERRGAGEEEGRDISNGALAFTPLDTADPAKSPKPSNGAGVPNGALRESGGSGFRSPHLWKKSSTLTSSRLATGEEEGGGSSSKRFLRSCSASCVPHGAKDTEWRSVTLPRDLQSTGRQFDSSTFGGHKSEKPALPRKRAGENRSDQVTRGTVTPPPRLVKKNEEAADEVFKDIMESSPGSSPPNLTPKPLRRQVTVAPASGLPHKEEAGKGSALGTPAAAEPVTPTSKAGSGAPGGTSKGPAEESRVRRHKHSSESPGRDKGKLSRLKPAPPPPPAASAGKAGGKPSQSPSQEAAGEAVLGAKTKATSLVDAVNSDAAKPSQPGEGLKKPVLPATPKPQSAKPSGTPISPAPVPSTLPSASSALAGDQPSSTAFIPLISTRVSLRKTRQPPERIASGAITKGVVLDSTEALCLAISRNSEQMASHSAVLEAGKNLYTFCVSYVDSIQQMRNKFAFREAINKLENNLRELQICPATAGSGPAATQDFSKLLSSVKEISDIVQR
Sequence of UniProt Q13237 (whole entry, looked up): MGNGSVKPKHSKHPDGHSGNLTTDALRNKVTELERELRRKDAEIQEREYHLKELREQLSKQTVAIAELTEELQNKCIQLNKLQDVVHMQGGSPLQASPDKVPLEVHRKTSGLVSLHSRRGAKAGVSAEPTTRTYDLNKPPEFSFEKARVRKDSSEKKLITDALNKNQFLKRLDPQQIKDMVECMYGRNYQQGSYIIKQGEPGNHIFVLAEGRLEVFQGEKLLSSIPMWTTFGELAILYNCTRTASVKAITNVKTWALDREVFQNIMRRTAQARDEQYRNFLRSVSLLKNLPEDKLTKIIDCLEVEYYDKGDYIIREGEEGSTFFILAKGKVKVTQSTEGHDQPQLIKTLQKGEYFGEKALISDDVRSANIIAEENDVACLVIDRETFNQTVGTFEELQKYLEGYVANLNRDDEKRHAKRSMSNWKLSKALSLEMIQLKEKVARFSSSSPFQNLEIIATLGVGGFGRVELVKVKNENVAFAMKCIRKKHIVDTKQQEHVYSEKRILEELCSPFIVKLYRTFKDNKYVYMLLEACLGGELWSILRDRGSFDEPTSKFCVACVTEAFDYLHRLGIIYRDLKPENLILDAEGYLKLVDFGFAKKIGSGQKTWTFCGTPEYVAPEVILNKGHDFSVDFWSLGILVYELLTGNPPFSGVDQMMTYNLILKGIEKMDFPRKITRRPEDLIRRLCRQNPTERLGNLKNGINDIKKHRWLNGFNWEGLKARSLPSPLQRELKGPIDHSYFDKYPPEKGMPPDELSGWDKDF
Sequence of UniProt Q8N568 (whole entry, looked up): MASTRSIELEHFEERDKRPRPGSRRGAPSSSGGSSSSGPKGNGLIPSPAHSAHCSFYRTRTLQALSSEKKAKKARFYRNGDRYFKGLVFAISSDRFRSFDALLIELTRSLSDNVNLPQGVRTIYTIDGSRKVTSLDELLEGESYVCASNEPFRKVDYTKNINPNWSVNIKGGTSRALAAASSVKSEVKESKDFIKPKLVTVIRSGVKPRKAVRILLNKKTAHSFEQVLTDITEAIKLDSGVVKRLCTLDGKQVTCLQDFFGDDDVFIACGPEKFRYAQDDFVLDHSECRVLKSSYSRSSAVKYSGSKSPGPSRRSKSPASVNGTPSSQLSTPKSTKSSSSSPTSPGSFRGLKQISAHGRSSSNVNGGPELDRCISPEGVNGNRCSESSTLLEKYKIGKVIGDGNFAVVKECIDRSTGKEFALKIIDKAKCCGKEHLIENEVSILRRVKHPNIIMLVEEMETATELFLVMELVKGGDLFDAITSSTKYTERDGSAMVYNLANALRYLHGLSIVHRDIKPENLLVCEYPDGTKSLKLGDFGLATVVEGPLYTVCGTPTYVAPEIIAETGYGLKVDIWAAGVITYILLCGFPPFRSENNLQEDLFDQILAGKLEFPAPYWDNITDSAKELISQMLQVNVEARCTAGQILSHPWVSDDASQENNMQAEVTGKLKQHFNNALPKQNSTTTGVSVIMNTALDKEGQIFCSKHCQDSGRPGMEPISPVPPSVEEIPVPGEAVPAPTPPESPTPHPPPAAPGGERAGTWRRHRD
Sequence of UniProt Q9Y271 (whole entry, looked up): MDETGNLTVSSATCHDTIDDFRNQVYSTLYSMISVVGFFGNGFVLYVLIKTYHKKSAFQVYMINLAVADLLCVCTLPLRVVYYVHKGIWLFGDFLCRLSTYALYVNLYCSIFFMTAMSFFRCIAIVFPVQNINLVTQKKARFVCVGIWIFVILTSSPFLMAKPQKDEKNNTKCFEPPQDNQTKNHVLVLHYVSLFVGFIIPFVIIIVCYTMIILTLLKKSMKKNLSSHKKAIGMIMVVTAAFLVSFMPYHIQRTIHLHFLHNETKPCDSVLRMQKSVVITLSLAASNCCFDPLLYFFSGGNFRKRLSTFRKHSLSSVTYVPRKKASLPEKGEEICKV

Block 1 — action: inhibitor; tested at: 10 µM; reference: control
Target: Diamine acetyltransferase 1 (Homo sapiens, UniProt P21673)
Residues (P21673 1-171): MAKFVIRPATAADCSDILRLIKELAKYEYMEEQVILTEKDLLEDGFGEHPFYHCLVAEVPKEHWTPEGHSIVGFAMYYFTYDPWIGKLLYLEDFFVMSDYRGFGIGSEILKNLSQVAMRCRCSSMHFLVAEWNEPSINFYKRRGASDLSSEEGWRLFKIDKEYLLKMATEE
Compound | remaining activity [%]
C[C@H](CC[C@@]1(O)O[C@H]2C[C@H]3[C@@H]4CC=C5C[C@@H](O[C@@H]6O[C@H](CO)[C@@H](O[C@@H]7O[C@@H](C)[C@H](O)[C@@H](O)[C@H]7O)[C@H](O)[C@H]6O[C@@H]6O[C@@H](C)[C@H](O)[C@@H](O)[C@H]6O)CC[C@]5(C)[C@H]4CC[C@]3(C)[C@H]2[C@@H]1C)CO[C@@H]1O[C@H](CO)[C@@H](O)[C@H](O)[C@H]1O | 104
N[C@@H](CCC(=O)O)C(=O)O | 100
CC1=CC[C@H]2C[C@@H]1C2(C)C | 101
COC(=O)[C@]1(O)C[C@@H](O)[C@@H](O)[C@H](OC(=O)/C=C/c2ccc(O)c(O)c2)C1 | 102

Block 2 — Compound: NC(N)=NC(=O)c1nc(Cl)c(N2CCCCCC2)nc1N; effect on: β-arrestin recruitment; action: agonist; method: PRESTO-Tango; tested at: 10 µM; reference: untreated
target | fold over basal
CYSLTR1 (Homo sapiens, UniProt Q9Y271) | 0.72
EDNRA (Homo sapiens, UniProt P25101) | 0.74
ADORA3 (Homo sapiens, UniProt P0DMS8) | 1.17

Block 3 — host: mouse; matrix: microsomes or S9; tested at: 2 µM; time: 0.5 h
SMILES | remaining compound
Nc1ccc(C(=O)OCc2nc3c(ccc4ccccc43)[nH]2)cc1 | 1.76%
COc1ccc(-c2nc(Cc3ccccc3)sc2C)cc1 | 0.447%
O=C(c1cc2cc(Br)c3ncccc3c2s1)N1CCN(c2ccccc2)CC1 | 78.5%

Block 4 — method: PRP chromatography estimate; matrix: 1,9-decadiene/PBS; pH: 7.4
Compound | logD
CC(C)C[C@@H]1NC(=O)[C@H](C(C)C)NC(=O)[C@H](CCC(=O)N2CCCC2)NC(=O)[C@H](CC(C)C)NC(=O)[C@@H](Cc2cscn2)NC(=O)[C@H](CC(C)C)NC(=O)[C@@H](CC(C)C)NC1=O | -0.595
CCOC(=O)[C@@H]1CSCC(=O)N[C@H](CC)C(=O)N(C)[C@@H](C)C(=O)N[C@H](CC(C)C)C(=O)N2CCC[C@@H]2C(=O)N(CC)CC(=O)N[C@@H](CC(C)C)C(=O)N(C)[C@H](C)C(=O)N[C@@H](CC(C)C)C(=O)N1C | -0.0699
CC(C)C[C@@H]1NC(=O)[C@H](C)NC(=O)[C@H](CC(C)C)NC(=O)[C@@H](CC(C)C)NC(=O)[C@H](CC(C)C)NC(=O)[C@H](C(C)C)NC(=O)[C@H](CCC(=O)N2CCCC2)NC1=O | -0.737

Block 5 — SMILES: FC(F)(F)c1ccc2c(c1)nc(-c1cccnc1)n2C1CC1; effect on: cell-free assay; method: competition with immobilised ligand; tested at: 1 µM
target | remaining binding
MAP2K6 (Homo sapiens, UniProt P52564) | 98%
CILK1 (Homo sapiens, UniProt Q9UPZ9) | 100%
IRAK3 (Homo sapiens, UniProt Q9Y616) | 100%
GAK (Homo sapiens, UniProt O14976) | 100%
PRKX (Homo sapiens, UniProt P51817) | 100%
MAPKAPK5 (Homo sapiens, UniProt Q8IW41) | 97%
WNK4 (Homo sapiens, UniProt Q96J92) | 100%
SGK2 (Homo sapiens, UniProt Q9HBY8) | 100%
NEK7 (Homo sapiens, UniProt Q8TDX7) | 100%
Tyrosine-protein kinase ABL1, phosphorylated (ABL1, Homo sapiens, UniProt P00519) | 91%
PRKG2 (Homo sapiens, UniProt Q13237) | 78%
Tyrosine-protein kinase JAK3, JH1 (JAK3, Homo sapiens, UniProt P52333) | 100%
CAMK4 (Homo sapiens, UniProt Q16566) | 100%
DCLK2 (Homo sapiens, UniProt Q8N568) | 100%
CSNK1E (Homo sapiens, UniProt P49674) | 100%
HIPK3 (Homo sapiens, UniProt Q9H422) | 100%
CAMK1 (Homo sapiens, UniProt Q14012) | 100%

Block 6 — cell line: mouse MPNST tumor cells; method: high-content immunofluorescence imaging; measured: nuclear SOX9; tested at: 10 µM; time: 12 h; setting: mean of 2 replicates; reference: DMSO control; reading: higher = more nuclear SOX9
Compound | nuclear SOX9 intensity
O=[N+]([O-])c1ccc2nc(COCc3nc4ccc([N+](=O)[O-])cc4[nH]3)[nH]c2c1 | 84.3 % of DMSO
CCOC(=O)N1CCC(CN(Cc2ccc(Cl)cc2)Cc2ccc([N+](=O)[O-])s2)C1 (stereo not shown) | 135 % of DMSO
c1ccc2[nH]c(-c3cscn3)nc2c1 | 105 % of DMSO and 107 % of DMSO
CCCCCCCC/C=C\CCCCCCCC(=O)NCc1ccc(O)c(OC)c1 | 91.8 % of DMSO

Some of these lines once more (block 5):
target | remaining binding
NEK7 (Homo sapiens, UniProt Q8TDX7) | 100%
DCLK2 (Homo sapiens, UniProt Q8N568) | 100%
GAK (Homo sapiens, UniProt O14976) | 100%
MAPKAPK5 (Homo sapiens, UniProt Q8IW41) | 97%
CSNK1E (Homo sapiens, UniProt P49674) | 100%
